# Assay results from different studies.
# Compare with care: the assays were run in different laboratories.
Compound,organism,assay,test system,conditions,MIC
C#CCO/N=C(\C(=O)N[C@@H]1C(=O)N(OS(=O)(=O)O)C1(C)C)c1nsc(N)n1,Enterobacter cloacae,agar dilution,CDC 1000654,,> 64 µg/mL
Cc1c(CN(C)C(=O)/C=C/c2cnc3c(c2)CC(N)C(=O)N3)oc2ccccc12 (stereo not shown),Enterobacter cloacae,"microbial growth, broth dilution",,,16 µg/mL
CCOc1c(NC(=O)c2ccc(NC(=O)[C@H](Cc3c[nH]nn3)NC(=O)c3ccc(NC(=O)/C(C)=C/c4ccc(O)cc4)cc3)cc2)ccc(C(=O)Nc2ccc(C(=O)O)c(O)c2OC)c1O,Enterococcus faecium,broth microdilution,ciprofloxacin-sensitive,,0.063 µg/mL
CC1(C)[C@H](NC(=O)/C(=N\OC2(C(=O)O)CCCC2)c2csc(N)n2)C(=O)N1OS(=O)(=O)O,Enterobacter cloacae,agar dilution,CDC 1000654,,4 µg/mL
CNC(C)C1CCC(N)C(OC2C(N)CC(N)C(OC3OCC(C)(O)C(NC)C3O)C2O)O1 (stereo not shown),Staphylococcus epidermidis,"microbial growth, broth dilution",12228,,1 µM
COc1c(NC(=O)c2ccc(NC(=O)c3ccc(NC(=O)[C@H](Cc4c[nH]nn4)NC(=O)c4ccc(NC(=O)/C(C)=C/c5ccc(O)cc5)cc4)cc3)cc2O)ccc(C(=O)O)c1O,Enterococcus faecium,broth microdilution,ciprofloxacin-sensitive,,8 µg/mL
CO[C@H]1[C@H](O)[C@@H](N)[C@@H](O[C@H]2[C@H](O[C@@H]3O[C@H](CO)[C@@H](O[C@H]4O[C@@H](CN)[C@@H](O)[C@H](O)[C@H]4N)[C@H]3O)[C@@H](O)[C@H](N)C[C@@H]2N)O[C@@H]1CO,Mycolicibacterium smegmatis,"microbial growth, broth dilution",,72 h,16 to 32 µg/mL
CCCCCCC#Cc1cncc(-c2nnc(SCc3ccc(Cl)cc3)n2C)c1,Enterobacter cloacae,"microbial growth, broth dilution",DSM30054,,> 64 µg/mL
CC1(C)[C@H](NC(=O)/C(=N\OCC(=O)N2CCC[C@@H]2C(=O)O)c2nsc(N)n2)C(=O)N1OS(=O)(=O)O,Enterobacter cloacae,agar dilution,"ATCC 43560, susceptible",,1 µg/mL
CC(=O)NC[C@H]1CN(c2ccc(N3CCN(C(=O)CN)CC3)c(F)c2)C(=O)O1,Salmonella enterica,"microbial growth, broth dilution",TYPHIMURIUM,,64 µM
CC1(C)C(NC(=O)C(=NOC2(C(=O)O)CC2)c2csc(N)n2)C(=O)N1OS(=O)(=O)O (stereo not shown),Klebsiella pneumoniae,agar dilution,"16-14, ESBL-producing",,0.06 µg/mL
C/C(=C\c1ccc(O)cc1)C(=O)Nc1ccc(C(=O)N[C@@H](Cc2c[nH]nn2)C(=O)Nc2ccc(C(=O)Nc3ccc(C(=O)Nc4ccc(C(=O)O)c(O)c4)c(O)c3)cc2)cc1,Enterococcus faecium,broth microdilution,ciprofloxacin-resistant,,16 µg/mL
CC[C@H](C)[C@@H]1NC(=O)[C@@H]([C@@H](C)O)NC(=O)CNC(=O)[C@H](CC(=O)O)NC(=O)CNC(=O)[C@H](CC(=O)O)NC(=O)CNC(=O)[C@H]2CCCCN2C(=O)[C@@H](NC(=O)[C@H](CC(=O)O)NC(=O)/C=C/CCCCCCCCCC(C)C)CNC(=O)[C@@H]2CCCN2C1=O,Staphylococcus aureus,broth microdilution,"MRSA USA300, Mueller-Hinton broth, Mg2+ 10 mg/L","16 h, 37 °C, together with: Ca2+ 5 mM",4 µg/mL
COc1cc(C(=O)O)ccc1NC(=O)c1ccc(NC(=O)c2ccc(NC(=O)[C@H](Cc3c[nH]nn3)NC(=O)c3ccc(NC(=O)/C(C)=C/c4ccc(O)cc4)cc3)cc2)cc1O,Enterococcus faecium,broth microdilution,ciprofloxacin-sensitive,,32 µg/mL
C[C@@H]1C(=O)O[C@@H](C)/C=C/C=C\[C@@H](C)[C@@H]2C=C[C@@H]3C[C@@]4(C)O[C@H]4[C@@H](C)[C@H]3[C@@H]2C(=O)C(Cl)(Cl)C1=O,Staphylococcus aureus,,MRSA clinical isolate,"resistant: OXA,CIP,ERY,GEN,LVX,MXF,SXT,TOB",0.1 µg/mL
CN[C@H](CC(C)C)C(=O)N[C@H]1C(=O)N[C@@H](CC(N)=O)C(=O)N[C@H]2C(=O)N[C@H]3C(=O)N[C@H](C(=O)N[C@H](C(=O)O)c4cc(O)cc(O)c4-c4cc3ccc4O)[C@H](O)c3ccc(c(Cl)c3)Oc3cc2cc(c3O[C@@H]2O[C@H](CO)[C@@H](O)[C@H](O)[C@H]2O[C@H]2C[C@](C)(NCc3ccc(-c4ccc(Cl)cc4)cc3)[C@H](O)[C@H](C)O2)Oc2ccc(cc2Cl)[C@H]1O,Enterococcus faecium,,VanA VRE ATCC BAA-2317,together with: LTA 100 µg/mL,5 µg/mL
C#CCNC(=O)C1(O/N=C(\C(=O)N[C@@H]2C(=O)N(OS(=O)(=O)O)C2(C)C)c2csc(N)n2)CC1,Enterobacter cloacae,agar dilution,ATCC 43560 susceptible,,1 µg/mL
COc1c(NC(=O)c2ccc(NC(=O)[C@H](Cc3c[nH]nn3)NC(=O)c3ccc(NC(=O)/C(C)=C/c4ccc(O)cc4)cc3)cc2)ccc(C(=O)Nc2ccc(C(=O)O)c(O)c2)c1O,Enterococcus faecium,broth microdilution,ciprofloxacin-sensitive,,2 µg/mL
NC[C@@H]1O[C@H](O[C@H]2[C@@H](O)[C@H](O[C@@H]3[C@@H](O)[C@H](N)C[C@H](N)[C@H]3O[C@H]3O[C@@H]4COCO[C@H]4[C@H](O)[C@H]3N)O[C@@H]2CO)[C@H](N)[C@@H](O)[C@@H]1O,Mycolicibacterium smegmatis,"microbial growth, broth dilution",,72 h,128 µg/mL
CC1(C)[C@H](NC(=O)/C(=N\OC2(C(=O)O)CCCCC2)c2csc(N)n2)C(=O)N1OS(=O)(=O)O,Enterobacter cloacae,agar dilution,CDC 1000654,,16 µg/mL
COc1nc(C(=O)Nc2ccc(C(=O)O)nc2OC)ccc1NC(=O)c1ccc(NC(=O)[C@H](Cc2c[nH]nn2)NC(=O)c2ccc(NC(=O)/C(C)=C/c3ccc(O)cc3)cc2)cc1,Enterococcus faecium,broth microdilution,ciprofloxacin-resistant,,64 µg/mL
CC1(C)[C@H](NC(=O)/C(=N\OCCN)c2nsc(N)n2)C(=O)N1OS(=O)(=O)O,Enterobacter cloacae,agar dilution,"ATCC 43560, susceptible",,8 µg/mL
COc1c(NC(=O)c2ccc(NC(=O)c3ccc(NC(=O)[C@H](Cc4c[nH]nn4)NC(=O)c4ccc(NC(=O)/C(C)=C/c5ccc(O)cc5)cc4)cc3)c(OC)c2O)ccc(C(=O)O)c1O,Salmonella enterica,"microbial growth, broth dilution",TYPHIMURIUM,,0.016 µg/mL
CC1(C)[C@H](NC(=O)/C(=N\OC2(C(=O)O)CC2)c2nsc(N)n2)C(=O)N1OS(=O)(=O)O,Enterobacter cloacae,agar dilution,"ATCC 43560, susceptible",,0.5 µg/mL
CCCCCCCCCCCCCCCCCCn1cc(CN(CCC(=O)NCCN(CCC(=O)NCCN(CCC(=O)NCCN(C)C)CCC(=O)NCCN(C)C)CCC(=O)NCCN(CCC(=O)NCCN(C)C)CCC(=O)NCCN(C)C)CCC(=O)NCCN(CCC(=O)NCCN(CCC(=O)NCCN(C)C)CCC(=O)NCCN(C)C)CCC(=O)NCCN(CCC(=O)NCCN(C)C)CCC(=O)NCCN(C)C)nn1,Enterobacter cloacae,broth microdilution,"119, LB broth",18 h,> 96 µg/mL

# Repeated from above:
Compound,organism,assay,test system,conditions,MIC
COc1c(NC(=O)c2ccc(NC(=O)c3ccc(NC(=O)[C@H](Cc4c[nH]nn4)NC(=O)c4ccc(NC(=O)/C(C)=C/c5ccc(O)cc5)cc4)cc3)cc2O)ccc(C(=O)O)c1O,Enterococcus faecium,broth microdilution,ciprofloxacin-sensitive,,8 µg/mL
CC1(C)[C@H](NC(=O)/C(=N\OC2(C(=O)O)CCCC2)c2csc(N)n2)C(=O)N1OS(=O)(=O)O,Enterobacter cloacae,agar dilution,CDC 1000654,,4 µg/mL
